Assay results pooled from the literature.
Each numbered part is a random draw from the data of one study; scales do not carry over between parts. Positions count from the first letter of the parent shown.
UniProt Q9Y2X8, sequence (whole entry, looked up): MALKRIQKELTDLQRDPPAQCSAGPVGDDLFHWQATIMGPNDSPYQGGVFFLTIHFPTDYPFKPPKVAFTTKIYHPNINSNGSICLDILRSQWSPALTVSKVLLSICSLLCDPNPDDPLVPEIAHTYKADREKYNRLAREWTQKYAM

Set 1
Target: HLA class I histocompatibility antigen, A alpha chain, allele A*80:01 (Homo sapiens, UniProt P04439)
Read-out: peptide-MHC binding
Molecule type: peptide
Concentration: concentration not given
Sequence	binding
SSDLRSWTF	inactive
EIKDRILSY	inactive
MHYGYNRAN	inactive
NPAACSYMV	inactive
HLTRVGPYL	inactive
IQYVIRAQL	inactive
MELSLRAIQ	inactive
SCRVKLSAL	inactive
RRRPVTRPL	inactive

Set 2
Target: RING finger protein unkempt homolog, zinc fingers 1-6, GST-SBP tag (UNK, Homo sapiens, UniProt Q9C0B0, residues 30-357)
Method: RNA Bind-n-Seq
Molecule type: RNA
Medium: in vitro
Concentration: not given
Setting: RNA with constant flanks, ends assumed
Reference: input RNA pool
Reading: higher = stronger binding
All sequences stand within: GGGAGUUCUACAGUCCGACGAUC … CAACAGAGGAUUGAGCAUCA
Residues (chain): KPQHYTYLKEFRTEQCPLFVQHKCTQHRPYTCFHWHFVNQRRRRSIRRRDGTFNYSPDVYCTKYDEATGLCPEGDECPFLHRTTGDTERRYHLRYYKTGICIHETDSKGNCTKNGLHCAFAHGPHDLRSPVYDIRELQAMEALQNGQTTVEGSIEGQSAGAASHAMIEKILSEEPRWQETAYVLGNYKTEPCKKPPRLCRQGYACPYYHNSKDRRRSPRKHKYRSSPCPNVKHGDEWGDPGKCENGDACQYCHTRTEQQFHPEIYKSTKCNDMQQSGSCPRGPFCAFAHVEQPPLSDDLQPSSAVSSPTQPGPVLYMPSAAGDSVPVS
Strand	bound/input enrichment [ratio]
AAUCUCUGGGAACACUAUUAUAAAGAUGGACAAGCCAUUAUUUUUGUCAUUGAUAGCCGUGAUAAGUUAAGAAUGGUUGUGGCCAAAGAAGAGCUUGAUACCCUUCUGAAUCACCCAGAU	0.13
GCUAGCCAGUCUGGAGCAACAUUCUUCAGCAUCUCUGCUUCAUCGUUGACUUCUAAGUGGGCCGGUGAGGGAGAAAAAAUGGUCCGUGCACUGUUUGCUGUUGCCAGGUGUCAGCAGCCA	0.125
GUGGGUCAGGACCCUGUCUUGAGACAGGUGGAAGGAAAAAAUCCAGUCACAAUAUUUUCUCCCGCAACUAAUGAGAUGUGGCGAUCAGGGGAUAGUGAAGUUUACCAACUGGGUGAUGUC	0.335
UAAUAUGACUCUCCAUAUUUUGGUACCAAUUCUGAGACUGUAUGAAUUUUCAGGUGGAACUUCCGCACACACUGAAGCAAAGUUGUGAAGUGCAGGGCGGGAGGUGGGCGUGAGCUUUCU	0.126
UGGGAUAGCCAAGCAAAAUCAGUAAUUAUUUUAAAAUGAACAUAUGUAUUUUUAUUAACUUUCCGUUAAAUACAGAUUUUACAACGAGGUCAGCAUAAGCCUAAAUCUAUAUAGAGGGCU	3.53
UUUCUAGUUUGAGCUUUCUUUUUGGCCGUCUUUAAAAAAAUUUUUUUUUUUAAUCUAUAAAACCGACAAGAGCUAGUUCUACAAUGUCCAAGUCAUUCCAGCAGUCAUCUCUCAGUAGGG	0.595
CCUGUCAUUCACAACGGAAGCCAGGGCACGGGCACCAAUGGGUCGGAAAUCAGUGACCGCGAUUAUCAGGCAGAAUACCCCGAUGAAUAUCAUGGCGAGUACCCAGACGACUACCCUCGG	0.163
GAGAUCGAUUGCACCAUGCUCACCCCUGAGCCAGUUUUAAAGACCUCUGGCCAUGCCGACAAAUUUGCUGACUUCAUGGUGAAAGACGUAAAAAAUGGAGAAUGUUUUCGUGCUGACCAU	0.0987

Set 3
Target: CCNA2, cyclin fold, Cln2 fusion (human)
Method: yeast growth competition, sequencing
Medium: yeast
Setting: strong parent motif
Reference: not given
Reading: higher = stronger binding
Parent: viral docking peptide; PGASRRLFGSSAD
Variant	normalised enrichment score
R5K F8L	0.331
G2A	2.25
F8A	0.125
D13A	2.57
R5A	0.226
F8L	0.627
R5A L7A	0.297
G9A	4.02
S11A	3.51

Further values, each from its own experiment
Sequence	target	assay	system	conditions	scale	measurement	result
ANYISAHTKDCPKCNICIEKNGGCNHMQCSKCKHDFCWMCLGDWKTHGSE (ARIH2 RING domain (UniProt O95376))	UBE2D4 UBC core domain (UniProt Q9Y2X8)	yeast two-hybrid	peptide, yeast	mostly zero background	reference: not given, higher = stronger interaction	lacZ reporter activity	0

A few entries again (set 3):
Variant	normalised enrichment score
F8A	0.125
S11A	3.51
